{"data": "Assay results gathered from unrelated publications", "note": "Numbers after ± are the reported error."}
{"SMILES": "CCOC(=O)C1=C(CN2CCC[C@H]2C(=O)Nc2ccc(B(O)O)cc2)NC(c2nccs2)=N[C@@H]1c1ccc(F)cc1Br", "target or system": "hepatitis B virus", "system": "HepDES19", "how to read": "baseline: CC50 over EC50", "quantity": "selectivity index", "value": 1}
{"SMILES": "[Cl-].[Cl-].[Pt+2].[Ru+2].c1ccc(-c2nc3ccccc3nc2-c2ccccn2)nc1.c1cnc2c(c1)ccc1cccnc12.c1cnc2c(c1)ccc1cccnc12", "target or system": "Danio rerio", "system": "embryos", "setting": "45 µM, 96 h", "quantity": "hatching rate", "value": "36.7 ± 2.1%"}
{"SMILES": "COc1cccc(-c2n[nH]c(SCc3ccccn3)n2)c1OC", "target or system": "Escherichia coli", "assay": "Ames test, plate incorporation", "system": "WP2 uvrA", "setting": "1.0 mg/plate, without S9", "quantity": "revertant colonies per plate", "value": 23}
{"SMILES": "CCOC(=O)C1=C(CN2CCCC2C(=O)Nc2cccc(B3OC(C)(C)C(C)(C)O3)c2)NC(c2nccs2)=NC1c1ccc(F)cc1Br (centres unmarked)", "target or system": "hepatitis B virus", "system": "HepDES19", "how to read": "baseline: CC50 over EC50", "quantity": "selectivity index", "value": 80}
{"SMILES": "OC(CCN1CC=C(c2ccc(F)cc2)CC1)c1ccc(F)c2ccccc12 (centres unmarked)", "target or system": "Salmonella typhimurium", "assay": "SOS/umu test", "system": "TA1535/pSK1002", "setting": "0.002 mg/mL, 4 h, without S9, full range", "quantity": "survival", "value": "106%"}
{"SMILES": "CNC(=O)c1c(N(C)N=O)ncn1C", "target or system": "Salmonella typhimurium", "assay": "mutagenicity, Ames plate incorporation", "system": "TA1537", "setting": "1500 µg/plate, without S9, methanol", "quantity": "revertant colonies per plate", "value": "8 ± 3"}
{"SMILES": "Cc1cc(C(=O)NC(C)(C)COc2cccc3c2C(N)=NS(=O)(=O)N3)cc(C)n1", "target or system": "Salmonella typhimurium", "assay": "Ames test, initial", "system": "TA1537", "setting": "50.0 µg/plate, with: rat liver S9", "how to read": "baseline: solvent control", "quantity": "revertant ratio", "value": 0.9}
{"SMILES": "CC(=O)N1CCC(C(=O)N2CCN3C(=O)c4cc(-c5ccccc5)ccc4NC(=O)C3C2)CC1 (centres unmarked)", "target or system": "Escherichia coli", "system": "WP2 uvrA", "setting": "5.0 µg/plate, with rat liver S9", "quantity": "revertants per plate", "value": 41}
{"SMILES": "N#C[C@@]1(n2ccc(N)nc2=O)O[C@H](CO)[C@@H](O)[C@H]1O", "target or system": "Salmonella typhimurium", "system": "TA98", "setting": "100 µM, without S9", "quantity": "viability", "value": "85%"}
{"SMILES": "O=[N+]([O-])c1ccc(N2CCC(NCCC(O)c3ccc(F)c4ccccc34)CC2)c(C(F)(F)F)c1 (centres unmarked)", "target or system": "Salmonella typhimurium", "assay": "SOS/umu test", "system": "TA1535/pSK1002", "setting": "0.002 mg/mL, 4 h, with S9, full range", "quantity": "survival", "value": "70%"}
{"SMILES": "COc1ccc(N2CCN(CCCNC(=O)c3cc(Nc4ccc(OC)cc4OC)nc4ccccc34)CC2)cc1", "target or system": "Vero-E6", "assay": "CellTiter-Glo ATP", "setting": "72 h, second round 5-point", "how to read": "baseline: DMSO 0%, hyamine -100%, more negative, more toxic", "quantity": "maximum response", "value": "-13.6%"}
{"SMILES": "CCOC(=O)C1=C(CN2CCC(C(=O)Nc3cccc(B(O)O)c3)C2)NC(c2nccs2)=NC1c1ccc(F)cc1Br (centres unmarked)", "target or system": "hepatitis B virus", "system": "HepDES19", "how to read": "baseline: CC50 over EC50", "quantity": "selectivity index", "value": 30}
{"SMILES": "O=[N+]([O-])c1ccc(N2CCN(CCC(O)c3ccc(F)cc3)CC2)c(C(F)(F)F)c1 (centres unmarked)", "target or system": "Salmonella typhimurium", "assay": "genotoxicity, SOS/umu test", "system": "TA1535/pSK1002", "setting": "0.063 mg/mL, 4 h, without S9, lower range", "quantity": "induction factor", "value": 0.4}
{"SMILES": "Cc1oc(-c2cccc(Cl)c2)nc1CN1CCCC(C(=O)NCCc2ccc(Cl)cc2)C1 (centres unmarked)", "target or system": "Vero-E6", "assay": "CellTiter-Glo ATP", "setting": "concentration not given, 72 h, retest 8-point duplicates", "how to read": "baseline: DMSO 0%, hyamine -100%, more negative, more toxic", "quantity": "cytotoxicity efficacy", "value": "-44.3%"}
{"SMILES": "[Cl-].[Cl-].[Pt+2].[Ru+2].c1ccc(-c2nccnc2-c2ccccn2)nc1.c1cnc2c(c1)ccc1cccnc12.c1cnc2c(c1)ccc1cccnc12", "target or system": "Danio rerio", "system": "embryos", "setting": "60 µM, 72 h", "quantity": "survival rate", "value": "56.7 ± 3.7%"}
{"SMILES": "O=[N+]([O-])c1ccc(NC2CCNCC2)c(C(F)(F)F)c1", "target or system": "Salmonella typhimurium", "assay": "genotoxicity, SOS/umu test", "system": "TA1535/pSK1002", "setting": "0.008 mg/mL, 4 h, without S9, full range", "quantity": "induction factor", "value": 0.6}
{"SMILES": "CCOC(=O)C1=C(CN2CCC(C(=O)Nc3ccc(B4OC(C)(C)C(C)(C)O4)cc3)C2)NC(c2nccs2)=NC1c1ccc(F)cc1Br (centres unmarked)", "target or system": "hepatitis B virus", "system": "HepDES19", "how to read": "baseline: CC50 over EC50", "quantity": "selectivity index", "value": 34}
{"SMILES": "[Cl-].[Cl-].[Pt+2].[Ru+2].c1ccc(-c2nc3cc4ccccc4cc3nc2-c2ccccn2)nc1.c1cnc2c(c1)ccc1cccnc12.c1cnc2c(c1)ccc1cccnc12", "target or system": "Danio rerio", "system": "embryos", "setting": "90 µM, 72 h", "quantity": "hatching rate", "value": "3.33 ± 2.9%"}
{"SMILES": "Fc1ccc(C2=CCNCC2)cc1", "target or system": "Salmonella typhimurium", "assay": "SOS/umu test", "system": "TA1535/pSK1002", "setting": "0.063 mg/mL, 4 h, with S9, full range", "quantity": "survival", "value": "84.7%"}
{"SMILES": "CCOC(=O)C1=C(CN2CCCC2C(=O)Nc2cccc(B(O)O)c2)NC(c2nccs2)=NC1c1ccc(F)cc1Br (centres unmarked)", "target or system": "hepatitis B virus", "system": "HepDES19", "how to read": "baseline: CC50 over EC50", "quantity": "selectivity index", "value": 79}
{"SMILES": "O=C(Nc1cc(F)c(F)c(F)c1)c1ccc(F)c(S(=O)(=O)N2CCC(O)CC2)c1", "target or system": "hepatitis B virus", "system": "HepAD38", "how to read": "baseline: CC50 over EC50", "quantity": "selectivity index", "value": 31.2}
{"SMILES": "CCOC(=O)C1=C(CN2CCN(Cc3ccccc3B(O)O)CC2)NC(c2nccs2)=NC1c1ccc(F)cc1Br (centres unmarked)", "target or system": "hepatitis B virus", "system": "HepDES19", "how to read": "baseline: CC50 over EC50", "quantity": "selectivity index", "value": "> 34"}
{"SMILES": "CC(C)N(N=O)C(C)C", "target or system": "Salmonella typhimurium", "assay": "mutagenicity, Ames plate incorporation", "system": "TA1537", "setting": "500 µg/plate, without S9, methanol", "quantity": "revertant colonies per plate", "value": "12.7 ± 5"}
{"note": "Repeated from above:"}
{"SMILES": "CCOC(=O)C1=C(CN2CCC(C(=O)Nc3cccc(B(O)O)c3)C2)NC(c2nccs2)=NC1c1ccc(F)cc1Br (centres unmarked)", "target or system": "hepatitis B virus", "system": "HepDES19", "how to read": "baseline: CC50 over EC50", "quantity": "selectivity index", "value": 30}
{"SMILES": "O=[N+]([O-])c1ccc(N2CCN(CCC(O)c3ccc(F)cc3)CC2)c(C(F)(F)F)c1 (centres unmarked)", "target or system": "Salmonella typhimurium", "assay": "genotoxicity, SOS/umu test", "system": "TA1535/pSK1002", "setting": "0.063 mg/mL, 4 h, without S9, lower range", "quantity": "induction factor", "value": 0.4}
